Experimental data collected from several papers.
Numbers after ± are the reported error.
Organism: Trypanosoma cruzi

O=c1cc[s+]([O-])c2ccccc12 (racemic)
EC50 (intracellular amastigote growth; U-937, Tulahuen, β-galactosidase transfected; 72 h): 112 µM

Clc1ccc(C(c2ccc(Cl)cc2)n2cc[n+](CC(OCc3ccc(Cl)cc3Cl)c3ccc(Cl)cc3Cl)c2)cc1 (centres unmarked)
EC50 (U-2 OS host cells, Y; 72 h, intracellular amastigotes, with: FBS 10%): 2 µM

Cc1ccc2nc(-c3ccccc3)c(CNc3cccc(C(F)(F)F)c3)n2c1
EC50 (3T3 host cells, Tulahuen beta-galactosidase; 6 days): > 20 µM

CCCCCCCCCC1=CC(=O)c2ccccc2S1(=O)=O
EC50 (intracellular amastigote growth; U-937, Tulahuen, β-galactosidase transfected; 72 h): 249 µM

CCOC(=O)c1csc(NN=Cc2ccc(Cl)cc2)n1
EC50 (parasite growth; 24 h, trypomastigote): 24.9 µM

CCC(=O)C[C@@H](O)C[C@@H](C)C[C@H](NC(=O)[C@@H]1C[C@H](C)CN1C(=O)/C=C/[C@@H](C)CC)C(=O)N[C@H](C(=O)NC(C)(C)C(=O)N[C@@H](CC(C)C)C(=O)N[C@@H](CC(C)C)C(=O)NC(C)(C)C(=O)NC(C)(C)C(=O)NCCC(=O)N[C@@H](C)CN(C)C)[C@H](O)C(C)C
EC50 (amastigote replication, high-content imaging; C2C12, CA-I/72; 72 h): 0.0071 ± 0.0016 µM

CCOC(=O)c1c(C)oc2nc(N3CCN(c4ccccc4)CC3)ccc12
EC50 (3T3 host cells, Tulahuen beta-galactosidase; 6 days): 3.4 µM

CCCCCCCCCCCCCCCCn1cc[n+](Cc2ccccc2)c1C
EC50 (parasite growth, imaging; U2OS; 72 h, intracellular, amastigote): 0.6 µM

Cc1ccc2nc(-c3ccc(F)c(F)c3)c(CN3CCN(CCc4cccnc4)CC3)n2c1
EC50 (3T3 host cells, Tulahuen beta-galactosidase; 6 days): 1.8 µM

O=c1cc[s+]([O-])c2ccc(F)cc12 (racemic)
EC50 (intracellular amastigote growth; U-937, Tulahuen, β-galactosidase transfected; 72 h): 102 µM

CNC(=O)c1c(F)cccc1Nc1nc(Nc2cc3c(cc2OC)CCN3C(=O)CN(C)C)nc2[nH]ccc12
EC50 (parasite growth; TULAHUEN; intracellular, amastigote): 10 µM

O=c1cc[s+]([O-])c2ccc(Cl)cc12 (single isomer, unassigned; (-))
EC50 (intracellular amastigote growth; U-937, Tulahuen, β-galactosidase transfected; 72 h): 94 µM

Fc1ccc(-c2cn3ccccc3n2)cc1F
EC50 (3T3 host cells, Tulahuen beta-galactosidase; 6 days): > 20 µM

Cc1nc(C)c(C(=O)Nc2ccc(F)c(-c3nc4ncc(-c5ccccn5)cn4n3)c2)o1
EC50 (ubiquitylated protein accumulation; epimastigotes): 0.13 µM

Some of these lines once more:
CCC(=O)C[C@@H](O)C[C@@H](C)C[C@H](NC(=O)[C@@H]1C[C@H](C)CN1C(=O)/C=C/[C@@H](C)CC)C(=O)N[C@H](C(=O)NC(C)(C)C(=O)N[C@@H](CC(C)C)C(=O)N[C@@H](CC(C)C)C(=O)NC(C)(C)C(=O)NC(C)(C)C(=O)NCCC(=O)N[C@@H](C)CN(C)C)[C@H](O)C(C)C
EC50 (amastigote replication, high-content imaging; C2C12, CA-I/72; 72 h): 0.0071 ± 0.0016 µM
